Results collected from several papers.
Each numbered part is a random draw from the data of one study; scales do not carry over between parts.

Series 1
Substance: PhoQ, residues 284 288 289 292 302 303 AGCYAI
Technique: Sort-seq
Refers to: YFP reporter
Sample: E. coli
Notes: PhoQ-PhoP variant library
Added: 10 µM Mg2+
Baseline: high Mg2+ state
Direction: higher = stronger signaling
It gave 4.84 for fold induction (PhoP, residues 12 14 15 18 19 SFCSL (Escherichia coli, UniProt P23836)).
It gave 7.79 for fold induction (PhoP, residues 12 14 15 18 19 AYFRS (Escherichia coli, UniProt P23836)).
It gave 0.708 for fold induction (PhoP, residues 12 14 15 18 19 HHYTI (Escherichia coli, UniProt P23836)).

Series 2
Target: RNA binding protein fox-1 homolog 2, RRM domain, GST-SBP tag (RBFOX2, Homo sapiens, UniProt O43251-10, residues 100-194)
Technique: RNA Bind-n-Seq
Form: RNA
Sample: in vitro
Concentration: 365 nM
Notes: natural RNA segment, single round, ends assumed
Baseline: no-protein control
Direction: higher = stronger binding
All sequences stand within: GGGAGUUCUACAGUCCGACGAUC … UGGAAUUCUCGGGUGCCAA
Residues (chain): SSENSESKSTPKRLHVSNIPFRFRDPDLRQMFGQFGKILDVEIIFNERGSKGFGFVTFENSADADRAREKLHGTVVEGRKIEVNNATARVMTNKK
`GGAAGGGGCCACGUGGAUGGGCAAAGCUUGUCAAAGAUGCCCCCUCCAGGAGAGAGCCAGGAUGCCCAGAUGAACUGACUGAAGGAAAAGCAAGAAACAGUUUCUUGCUU`: “RBNS enrichment (R)” 0.459.
Under “RBNS enrichment (R)”, `CGAGAGACUUGGUUGAACUUGGUUGGUCCUUGUCUGCACCCUCGACAAGACCACACUUUGGGACUUGGGAGCUGGGGCUGAAGUUGCUCUGUACCCAUGAACUCCCAGUU` is recorded as 1.43.
For `UUCCUUACAUUAUAAAAUAAAAGCAGUGAAGUAAAUUGACAGCUAAGGAUCUCUAUUUCAUCUCUUGAACGAUGAAAAUAGUGACGUAUAUAUAGUACUUCUAUAAAUAA`, “RBNS enrichment (R)” read 0.47.
For `AUUCCGGGACCUGGCCCUGGGGGUGGACAAAGUCCAAGAGAGGGUGGUGAAAGGAAAAUUGCUGGAGGAGGAAGUGCAGGCUCAGACCCAGUCAGUACAAAUGGAAAAGG`, “RBNS enrichment (R)” read 0.538.
For `ACUAGGGUGCUCACCCCUCAAGAUUGAUUCCCUGUCUUUCCCUCUGGGGCACCGCACUUUGUAAAGGGUGAUGGUGGACCCCUUCCCUUACUUUCAGGUCUGGAGUCUUC`, “RBNS enrichment (R)” read 0.287.
For `GUGUAUUUGUAUAUUUUAGGUUAAAAAGACUUUAUAUGUUUCAUUCACUUUCCCAUGAAACUGCUGACAGACAGAAGUCACUAAAAUAAGGAAUUUUAAUGUUACUUUUU`, “RBNS enrichment (R)” read 0.595.
`UAUAGUGCCCAGUCUCUCUCUCCUAUUUUUUAUUUUUUUAAGCUAGACUCAAGGGUGUGUGGUAUUUCGCUUUUUAGUACAUUACUUUACUGGAAGCUUAAAAUUUGCUU`: “RBNS enrichment (R)” 0.575.

Series 3
Target: Fragile X messenger ribonucleoprotein 1, C-terminal low-complexity region (Fmr1, Mus musculus, UniProt P35922)
Technique: RNA Bind-n-Seq
Form: RNA
Sample: in vitro
Concentration: 200 nM
Notes: whole 134-nt RNA, ends assumed
Added: 150 mM KCl
Baseline: input library
Direction: higher = stronger binding
All sequences stand within: GGGAGUUCUACAGUCCGACGAUC … UGGAAUUCUCGGGUGUCAAGG
The log2 enrichment of `CCUGUGCUACACAUCGUAUGUACCGAAUCGGGAAAAAAAGGGAAAAAAAGGAAAAAAAGGGAAAGUAUUAUGUUACGCCGUUCGGAUCUG` is reported as -0.946.
The log2 enrichment of `CCUGUGCUACACAUCGUAUGUACCGAAUCGGUUUUUUUGGGUUUUUUUGGUUUUUUUGGGGAAAGUAUUAUGUUACGCCGUUCGGAUCUG` is reported as -0.843.
With `CACAGACAACACCCACCCACACAGACACAGAGGGAAGGGGUUGGGAUGGGGACAGGGUGCACAGCAGGGCGGGGUAGGACCCCAGCCCCU` the log2 enrichment was 1.48.
The log2 enrichment of `UGGGAGGUGGAUUUUGUUAAUUUUUUUAGCUCAUUUCCAGGGGUGGGAAUUUUUUUUUAAUAUGUGUCAUGAAUAAAGUUGUUUUUGAAA` is reported as 0.259.
The log2 enrichment of `UUGCUAACUUCAAGAUAGAGCCUCCUGGACUUUUCCGUGGCCGCGGCAACCACCCCAAGAUGGGCAUGCUGAAGAGACGAAUCAUGCCCG` is reported as -0.682.
With `UAUGGACAAGCAUAAUGGAACAGACAGGUUUGUGAACCAGCAGUUUCAAGAGGAAAAGUUAAAUAAAUUGCAGAAGUUACUUAUUCUUUU` the log2 enrichment was -1.62.
`UUGUGGGAGGAUUUUGAGAUACUUAUUCUUUAUUUGAGCCAGUCUUGCAAGGUUAACUUCUCACUGGGCCUAGUGUGGUGCCCAGGUUUU` gave a log2 enrichment of -1.47.
The log2 enrichment of `GAGAGCGAGGUGGCUUCAAUAAGCCUGGUGGUAAGUUUUUGAGUAUUACCAUAGAUAGUGUUUAAAAAAAAAUGCAGUCAGUUUUUAGAA` is reported as -0.471.
`UACCAUGGUGGAAGUUCCCGUUCUCGUAGCAGUAUUUUCCAUGCAGGAAAAAGCCAAGGACUACAUGAAAACAACAUACCUGACAAUGAA` gave a log2 enrichment of 0.891.

Series 4
Target: Interferon regulatory factor 7, full length, phosphomimetic (IRF7, Homo sapiens, UniProt Q92985, residues 1-503, S101K/S471D/S472D/S475D/S476D/S477D/S483D/S484D/S487D)
Technique: protein-binding microarray
Form: double-stranded DNA, one strand shown
Sample: in vitro
Concentration: 250 nM
Notes: 60-bp whole probe
Added: salmon DNA 0.4 mg/ml
Baseline: random background probes
Direction: higher = stronger binding
All sequences stand within: GCCTAGCAC … GTCTTGATTCGCTTGACGCTGCTG
Residues (chain): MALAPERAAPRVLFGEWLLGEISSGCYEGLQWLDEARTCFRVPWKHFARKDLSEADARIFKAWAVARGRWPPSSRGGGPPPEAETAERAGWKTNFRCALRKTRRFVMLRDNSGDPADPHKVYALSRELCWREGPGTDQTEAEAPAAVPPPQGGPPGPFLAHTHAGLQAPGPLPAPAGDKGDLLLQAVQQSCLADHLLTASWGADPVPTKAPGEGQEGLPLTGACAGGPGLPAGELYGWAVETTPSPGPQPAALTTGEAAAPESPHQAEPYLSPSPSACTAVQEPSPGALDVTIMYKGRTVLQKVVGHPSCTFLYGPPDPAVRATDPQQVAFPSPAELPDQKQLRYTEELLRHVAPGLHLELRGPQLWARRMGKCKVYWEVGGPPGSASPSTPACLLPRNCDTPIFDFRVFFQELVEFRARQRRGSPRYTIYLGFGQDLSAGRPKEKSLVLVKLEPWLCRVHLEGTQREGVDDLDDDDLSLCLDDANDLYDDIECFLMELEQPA
`TTAGGTATCGGACTGGATTAGTGCTAG` has a log fluorescence of 0.358 z-score.
The log fluorescence of `GGCGGTTCCCTTTTCCTGACGTGCTAG` is reported as 2.65 z-score.
For `GACGGACTGGTTCTCGGGACGTGCTAG`, the log fluorescence was 0.0249 z-score.
For `GACGAACTGGGGACTGGAGATGTGCTA`, the log fluorescence was -0.63 z-score.
With `CCACTGCAAAAACATCCTGGGTGCTAG` the log fluorescence was 0.125 z-score.
The log fluorescence of `GACGGACTGCATATCCTGACGTGCTAG` is reported as -0.393 z-score.
The log fluorescence of `TTAGATATCGGGTAGCGATTAGTGCTA` is reported as -0.2 z-score.
The log fluorescence of `GACGGACTGCATTTCCTGACGTGCTAG` is reported as -0.139 z-score.
The log fluorescence of `CTCACCTCAGCCTCCCAAGTGTGCTAG` is reported as 0.324 z-score.
For `TCAGACTTGATTTTGGTACTGTGCTAG`, the log fluorescence was 0.0929 z-score.
For `AACGGTCTCGGACTGGGGACGTGCTAG`, the log fluorescence was 0.121 z-score.
With `GACGATATCAGTTTAGAGACGTGCTAG` the log fluorescence was -0.105 z-score.

For quick reference, copied from above (series 3):
With `CACAGACAACACCCACCCACACAGACACAGAGGGAAGGGGUUGGGAUGGGGACAGGGUGCACAGCAGGGCGGGGUAGGACCCCAGCCCCU` the log2 enrichment was 1.48.
The log2 enrichment of `UGGGAGGUGGAUUUUGUUAAUUUUUUUAGCUCAUUUCCAGGGGUGGGAAUUUUUUUUUAAUAUGUGUCAUGAAUAAAGUUGUUUUUGAAA` is reported as 0.259.
The log2 enrichment of `UUGCUAACUUCAAGAUAGAGCCUCCUGGACUUUUCCGUGGCCGCGGCAACCACCCCAAGAUGGGCAUGCUGAAGAGACGAAUCAUGCCCG` is reported as -0.682.
